Measured values from different studies.
A part holds a random share of what one study measured.

Block 1
Target: Replicase polyprotein 1ab, polymerase (rep, Severe acute respiratory syndrome coronavirus 2, UniProt P0DTD1)
Observed: enzyme activity
Action: inhibitor
Tested at: 20 µM
With CCCCS(=O)(=O)N[C@@H](Cc1ccc(OCCCCC2CCNCC2)cc1)C(=O)O the inhibition was 3.76%.
With CCOC(=O)Nc1nc2ccccc2[nH]1 the inhibition was -16.8%.
The inhibition of CCOC(=O)[C@H](CCc1ccccc1)N[C@H]1CCc2ccccc2N(CC(=O)O)C1=O is reported as -4.04%.
CC(S)C(=O)NCC(=O)O (stereo not drawn) gave an inhibition of 6.82%.
The inhibition of CN[C@@H](C)C(=O)N[C@H](C(=O)N1CCC[C@H]1C(=O)Nc1sc(-c2ncco2)nc1-c1ccccc1)C1CCCCC1 is reported as 1.58%.
CCOc1ccc(C(=O)OCCN(CC)CC)cc1 has an inhibition of -4.45%.
The inhibition of COc1cccc(CCc2ccccc2OCC(CN(C)C)OC(=O)CCC(=O)O)c1 (stereo not drawn) is reported as 2.66%.
For CCCCCN(CCCOC)C(=O)[C@@H](CCC(=O)O)NC(=O)c1ccc(Cl)c(Cl)c1, the inhibition was 0.47%.
COc1cc(C)[nH]c(=O)c1CNC(=O)c1c(C)n([C@H](C)C2CCOCC2)c2ccccc12 has an inhibition of -1.72%.
COc1ccc2c(c1)C(=O)N(CCc1ccc(S(=O)(=O)NC(=O)NC3CCCCC3)cc1)C(=O)C2(C)C has an inhibition of 6.2%.
For Cc1nnc(-c2ccc3occ(-c4ccc([S+](C)[O-])cc4)c3c2)o1 (stereo not drawn), the inhibition was -12.4%.
For C[C@](N)(Cc1ccc(O)c(O)c1)C(=O)O, the inhibition was 22.6%.
For CN(C)CCCSC(=N)N, the inhibition was -3.31%.
The inhibition of CC(C)NCC(O)c1ccc2ccccc2c1 (stereo not drawn) is reported as 1.07%.
CCCn1c(=O)c2[nH]c(C3CCCC3)nc2n(CCC)c1=O has an inhibition of -0.68%.
For CCCCOc1ccc(C(=O)CCN2CCCCC2)cc1, the inhibition was -13.5%.
For COc1ccc2cccc(N3CCN(CCNC(=O)c4ccc(F)cc4)CC3)c2c1, the inhibition was -1.85%.
The inhibition of CCC(=O)O[C@]1(C(=O)CCl)[C@@H](C)C[C@H]2[C@@H]3C[C@H](F)C4=CC(=O)C=C[C@]4(C)[C@@]3(F)[C@@H](O)C[C@@]21C is reported as 1.81%.
With COC(=O)c1cc2c(C(F)(F)F)cc(-c3ccccc3)cc2n1O the inhibition was -4.12%.
COc1cc2ncnc(Sc3nnc(C)s3)c2cc1OC has an inhibition of -5.6%.
COc1cc2nccc(Oc3ccc(NC(=O)Nc4ccc(F)cc4F)c(F)c3)c2cc1OC gave an inhibition of 0.57%.
COCCCOc1ccnc(C[S+]([O-])c2nc3ccccc3[nH]2)c1C (stereo not drawn) has an inhibition of 1.12%.
With NC(=O)N[C@@H](CCC(=O)O)C(=O)O the inhibition was -37.8%.
CCN(CC)CCNC(C(=O)OCCC(C)C)c1ccccc1 (stereo not drawn) gave an inhibition of -2.84%.
O=C1C=Cc2cc(Br)ccc2C1=O has an inhibition of 4.46%.

Block 2
Target: Phosphate system positive regulatory protein PHO4, full length, GST-tagged (PHO4, Saccharomyces cerevisiae, UniProt P07270, residues 1-312)
Method: competition protein-binding microarray
Molecule type: double-stranded DNA, one strand shown
Sample: in vitro
Tested at: 2 µM
Notes: whole 60-bp probe, lowest competitor level
Added: Cbf1 competitor, 0.05 µM
Reading: higher = stronger binding
Construct (chain): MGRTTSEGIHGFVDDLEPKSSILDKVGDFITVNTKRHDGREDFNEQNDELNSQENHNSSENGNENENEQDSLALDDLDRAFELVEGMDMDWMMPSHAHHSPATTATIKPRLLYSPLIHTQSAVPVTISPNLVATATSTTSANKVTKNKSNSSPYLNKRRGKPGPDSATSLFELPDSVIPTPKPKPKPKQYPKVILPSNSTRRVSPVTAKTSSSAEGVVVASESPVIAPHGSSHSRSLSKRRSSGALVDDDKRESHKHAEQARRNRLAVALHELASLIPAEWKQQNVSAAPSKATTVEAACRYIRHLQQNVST
With `TTAACGGTTCTCTAGCTCGTGCTTTTAAAGTTAAGTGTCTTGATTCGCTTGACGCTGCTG` the fluorescence intensity was 11000 a.u.
`CGGGGTTAAGTTTGACATGTGGGTGGCTTGCAGCAGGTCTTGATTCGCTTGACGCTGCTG` gave a fluorescence intensity of 10600 a.u.
`ACCTCCTCTTCAGTACTAAATCTACCAATACCAAATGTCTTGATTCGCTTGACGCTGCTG` gave a fluorescence intensity of 3930 a.u.
With `AGTTACGGTTGCCATCACGTGTCGGTAGGATAAAGTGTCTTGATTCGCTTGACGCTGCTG` the fluorescence intensity was 19700 a.u.
The fluorescence intensity of `CACACTGCGGGGTTACCCGTGTAACGTAGAATAAAAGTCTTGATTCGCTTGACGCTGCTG` is reported as 5770 a.u.
`AGGTTTTGCTAAATCTATGTGACAGTAATGACCAGGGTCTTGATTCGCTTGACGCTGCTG` gave a fluorescence intensity of 3530 a.u.
`AGAGGGCGGCACCATCACGATCCCTCTGCCTTTGAAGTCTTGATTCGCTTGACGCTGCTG` gave a fluorescence intensity of 4790 a.u.
`CTTTCCCGATCTTGCTAAGTGGGTGTAGCACATTTGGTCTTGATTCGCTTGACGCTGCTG` has a fluorescence intensity of 4690 a.u.

Block 3
Cell line: HEK-293T
Observed: pseudovirus infection
Method: FDA-approved drug library screen
Organism: VSV pseudotyped with SARS-CoV-2 spike
Tested at: 10 µM
Time: 16 h
Baseline: vehicle-treated
For CC1=C(/C=C/C(C)=C/C=C/C(C)=C/C(=O)O)C(C)(C)CCC1, the GFP-positive cells was 80.6%.
CC[N+](CC)(CC)CCOc1cccc(OCC[N+](CC)(CC)CC)c1OCC[N+](CC)(CC)CC has a GFP-positive cells of 68.3%.
O=C1CCc2cc(OCCCCc3nnnn3C3CCCCC3)ccc2N1 gave a GFP-positive cells of 91%.

Block 4
Target: Runt-related transcription factor 3, Runt domain (RUNX3, Homo sapiens, UniProt Q13761, residues 53-186)
UniProt Q13761, sequence (53-186, looked up): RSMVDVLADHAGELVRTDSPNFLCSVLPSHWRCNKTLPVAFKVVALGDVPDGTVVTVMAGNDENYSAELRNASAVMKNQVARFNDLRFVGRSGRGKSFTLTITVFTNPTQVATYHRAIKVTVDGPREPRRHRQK
Method: protein-binding microarray
Molecule type: hairpin DNA
Sample: in vitro
Tested at: not given
Notes: whole hairpin DNA, median over replicate spots
Baseline: not given
Reading: higher = stronger binding
The median fluorescence of `GAGGCCCAACCGCACGAGCCTCCTGGCTCGTGCGGTTGGGCCTCACACTC (5mC at 15)` is reported as 7520 a.u.
The median fluorescence of `GAGGCCTCGCGCGGTTGGCCTCCTGGCCAACCGCGCGAGGCCTCACACTC` is reported as 5960 a.u.
`GAGGCCCAACCGCACGAGCCTCCTGGCTCGTGCGGTTGGGCCTCACACTC (5mC at 29)` has a median fluorescence of 7320 a.u.
With `GAGGCCTGGTGTGGTTGGCCTCCTGGCCAACCACACCAGGCCTCACACTC` the median fluorescence was 5140 a.u.

Block 5
Target: Replicase polyprotein 1ab, main protease (rep, Severe acute respiratory syndrome coronavirus 2, UniProt P0DTD1)
Observed: enzyme activity
Action: inhibitor
Tested at: 20 µM
Notes: primary screen
The inhibition of Nc1ccc(O)c2ncccc12 is reported as 99.3%.
CCN(CC)C(=S)[S-].O.O.O.[Na+] gave an inhibition of 96.6%.
Nc1nc(=S)c2ncn(C3OC(CO)C(O)C3O)c2[nH]1 (stereo not drawn) gave an inhibition of 102%.

Block 6
Target: RNA binding protein fox-1 homolog 2, RRM domain, GST-SBP tag (RBFOX2, Homo sapiens, UniProt O43251-10, residues 100-194)
Method: RNA Bind-n-Seq
Molecule type: RNA
Sample: in vitro
Tested at: 365 nM
Notes: natural RNA segment, single round, ends assumed
Baseline: no-protein control
Reading: higher = stronger binding
Construct (chain): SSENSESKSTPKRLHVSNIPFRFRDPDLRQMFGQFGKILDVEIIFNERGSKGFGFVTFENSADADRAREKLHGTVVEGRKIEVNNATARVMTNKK
Under “RBNS enrichment (R)”, `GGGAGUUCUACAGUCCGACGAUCCGUUUGGCGCUGUUGUAUGGUGUGAUUGUCAGUGUAUGGUGUCACUUCCUAUAGCCAGCAGCAGACUUUGCCUUCCCUAUAGCACUUAGCUGAGCAUUACUUUAUGAUGAUGGAAUUCUCGGGUGCCAA` is recorded as 0.617.
For `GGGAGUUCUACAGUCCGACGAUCGUCAGGUCAUUAUUUGCUGUAUCAAAGUUCCAGUGGCUUCAGAAAUCAUAGCAUCCCAUGGUUUUGUGGUAUCUGGGUUUGUGUAAUGUUGUUGACACCUGUAUUUAAUGUGGAAUUCUCGGGUGCCAA`, “RBNS enrichment (R)” read 1.63.
`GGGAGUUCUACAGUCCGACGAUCGAAAGGAAAUCAAAAAUAGGCUAAACAGAAUUUUGAGGGCAUGGCCCAAAUAACUCAUGAGUUCCAAGUUGAAACAUGGUUGUGCAAGUUGGACAUUACAAUGUAAAACAUGGAAUUCUCGGGUGCCAA` — result for “RBNS enrichment (R)”: 0.451.
For `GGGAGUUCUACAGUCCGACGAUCAGAGGAGUCAGAGAGAGAGAGGAGUCAGAAGGUGGCCGGAGUUAUCAUUGGGUCCCCUGAGCUCCAUGAAGGACCCUCUGUUGUCCCCUUGAUGAUUUAUCAGGCAUGAGUGGAAUUCUCGGGUGCCAA`, “RBNS enrichment (R)” read 0.77.
`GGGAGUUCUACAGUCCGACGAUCAAGCCCAGAACAGAGACUUGAACACCAUGUCCUUAACCAAAGUCAGCUCUUCAGAGUGUAAAUGAGGGUCUGACUGGAAGCAGGGCAGCAGCUGUAAUUCUUCCAGCUCUUGGAAUUCUCGGGUGCCAA` — result for “RBNS enrichment (R)”: 0.312.
For `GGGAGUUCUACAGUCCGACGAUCAGGCAUUUGAGCUCGACCUCCGAAAAGCUACCCAGCAAAGAGCAGUCUGUGCCUCUGAGCAGACCGUGAGAACUCAGGGGACGAGUGGCUAAGAGCAUGGCCUCUCCCAGUGGAAUUCUCGGGUGCCAA`, “RBNS enrichment (R)” read 0.881.
`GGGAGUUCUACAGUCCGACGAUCAUGGGGGCGACUGGGGAGUCCUCAUUGAAUCCUCAUUUUAUACCCAAAACCCUGAAGCCAUUGGAGAGCUGUCUUCCUGUGUACCUCUAGAAUCCCAGCAGCAGAGAACCUGGAAUUCUCGGGUGCCAA`: “RBNS enrichment (R)” 0.58.
`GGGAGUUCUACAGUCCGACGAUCAUUAACUAUAACAAUCACUGGCUACCGAAGUAAACUGAUGUACUGAAUUCCAUAAUACAUAACAUUCAAUUUUUACCACUUCUGUUUAGCGAACUUGUAUACUUAUUUUCUGGAAUUCUCGGGUGCCAA`: “RBNS enrichment (R)” 0.55.

Excerpt of the above (block 1):
For C[C@](N)(Cc1ccc(O)c(O)c1)C(=O)O, the inhibition was 22.6%.
For CN(C)CCCSC(=N)N, the inhibition was -3.31%.
The inhibition of CC(C)NCC(O)c1ccc2ccccc2c1 (stereo not drawn) is reported as 1.07%.
CCCn1c(=O)c2[nH]c(C3CCCC3)nc2n(CCC)c1=O has an inhibition of -0.68%.
For CCCCOc1ccc(C(=O)CCN2CCCCC2)cc1, the inhibition was -13.5%.
For COc1ccc2cccc(N3CCN(CCNC(=O)c4ccc(F)cc4)CC3)c2c1, the inhibition was -1.85%.
The inhibition of CCC(=O)O[C@]1(C(=O)CCl)[C@@H](C)C[C@H]2[C@@H]3C[C@H](F)C4=CC(=O)C=C[C@]4(C)[C@@]3(F)[C@@H](O)C[C@@]21C is reported as 1.81%.
With COC(=O)c1cc2c(C(F)(F)F)cc(-c3ccccc3)cc2n1O the inhibition was -4.12%.
COc1cc2ncnc(Sc3nnc(C)s3)c2cc1OC has an inhibition of -5.6%.
